Results collected from several papers.
Each numbered part is a random draw from the data of one study; scales do not carry over between parts.
Sequence of UniProt Q9NSD7 (whole entry, looked up): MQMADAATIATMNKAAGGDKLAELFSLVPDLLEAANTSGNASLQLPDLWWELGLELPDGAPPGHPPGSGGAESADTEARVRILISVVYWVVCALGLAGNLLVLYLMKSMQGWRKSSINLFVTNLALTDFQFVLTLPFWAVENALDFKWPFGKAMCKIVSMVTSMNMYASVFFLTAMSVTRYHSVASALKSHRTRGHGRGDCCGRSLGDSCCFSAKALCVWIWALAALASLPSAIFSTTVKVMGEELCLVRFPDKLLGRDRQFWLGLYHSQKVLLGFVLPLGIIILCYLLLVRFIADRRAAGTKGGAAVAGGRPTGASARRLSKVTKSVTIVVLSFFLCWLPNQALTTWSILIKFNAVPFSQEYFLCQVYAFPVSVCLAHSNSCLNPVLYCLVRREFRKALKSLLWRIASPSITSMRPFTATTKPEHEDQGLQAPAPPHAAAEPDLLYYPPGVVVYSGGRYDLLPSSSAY
Sequence of UniProt Q9NZD1 (whole entry, looked up): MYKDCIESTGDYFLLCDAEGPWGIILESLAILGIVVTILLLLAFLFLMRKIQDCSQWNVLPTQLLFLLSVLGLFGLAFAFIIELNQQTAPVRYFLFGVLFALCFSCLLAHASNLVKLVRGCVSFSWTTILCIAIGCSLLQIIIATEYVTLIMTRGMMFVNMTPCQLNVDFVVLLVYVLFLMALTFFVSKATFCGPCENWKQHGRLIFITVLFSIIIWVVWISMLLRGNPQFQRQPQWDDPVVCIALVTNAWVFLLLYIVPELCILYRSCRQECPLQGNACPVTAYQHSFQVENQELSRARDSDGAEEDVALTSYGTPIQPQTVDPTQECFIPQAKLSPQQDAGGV
Sequence of UniProt Q9Y616 (whole entry, looked up): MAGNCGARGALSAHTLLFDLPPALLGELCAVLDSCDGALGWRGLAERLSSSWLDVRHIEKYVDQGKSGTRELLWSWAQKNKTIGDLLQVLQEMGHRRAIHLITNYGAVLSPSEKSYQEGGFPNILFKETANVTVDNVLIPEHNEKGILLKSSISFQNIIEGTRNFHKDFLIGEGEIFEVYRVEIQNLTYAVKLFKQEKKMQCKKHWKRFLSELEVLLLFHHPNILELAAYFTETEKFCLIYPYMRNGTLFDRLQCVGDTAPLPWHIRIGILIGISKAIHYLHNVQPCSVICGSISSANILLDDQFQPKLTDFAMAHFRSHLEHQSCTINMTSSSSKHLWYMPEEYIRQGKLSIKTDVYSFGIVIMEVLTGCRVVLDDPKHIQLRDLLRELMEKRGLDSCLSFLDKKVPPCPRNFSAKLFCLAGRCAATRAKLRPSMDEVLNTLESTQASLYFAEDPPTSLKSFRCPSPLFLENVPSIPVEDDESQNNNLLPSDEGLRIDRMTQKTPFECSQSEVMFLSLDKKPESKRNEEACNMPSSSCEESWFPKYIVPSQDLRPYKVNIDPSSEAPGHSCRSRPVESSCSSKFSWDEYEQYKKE
Sequence of UniProt P49760 (whole entry, looked up): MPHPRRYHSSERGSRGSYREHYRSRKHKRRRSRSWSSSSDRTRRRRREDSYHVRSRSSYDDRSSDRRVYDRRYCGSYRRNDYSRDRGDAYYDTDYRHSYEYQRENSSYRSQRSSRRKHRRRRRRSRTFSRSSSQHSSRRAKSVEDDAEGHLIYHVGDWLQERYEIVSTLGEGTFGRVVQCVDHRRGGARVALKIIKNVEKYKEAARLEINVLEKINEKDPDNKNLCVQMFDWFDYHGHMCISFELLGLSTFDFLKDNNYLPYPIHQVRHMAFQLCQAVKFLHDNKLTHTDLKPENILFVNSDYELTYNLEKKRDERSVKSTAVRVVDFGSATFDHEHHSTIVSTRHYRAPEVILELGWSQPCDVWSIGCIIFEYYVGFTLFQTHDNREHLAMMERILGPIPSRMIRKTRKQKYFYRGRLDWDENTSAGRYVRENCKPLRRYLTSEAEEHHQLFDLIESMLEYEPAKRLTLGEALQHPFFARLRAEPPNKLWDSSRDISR
Sequence of UniProt P51957 (whole entry, looked up): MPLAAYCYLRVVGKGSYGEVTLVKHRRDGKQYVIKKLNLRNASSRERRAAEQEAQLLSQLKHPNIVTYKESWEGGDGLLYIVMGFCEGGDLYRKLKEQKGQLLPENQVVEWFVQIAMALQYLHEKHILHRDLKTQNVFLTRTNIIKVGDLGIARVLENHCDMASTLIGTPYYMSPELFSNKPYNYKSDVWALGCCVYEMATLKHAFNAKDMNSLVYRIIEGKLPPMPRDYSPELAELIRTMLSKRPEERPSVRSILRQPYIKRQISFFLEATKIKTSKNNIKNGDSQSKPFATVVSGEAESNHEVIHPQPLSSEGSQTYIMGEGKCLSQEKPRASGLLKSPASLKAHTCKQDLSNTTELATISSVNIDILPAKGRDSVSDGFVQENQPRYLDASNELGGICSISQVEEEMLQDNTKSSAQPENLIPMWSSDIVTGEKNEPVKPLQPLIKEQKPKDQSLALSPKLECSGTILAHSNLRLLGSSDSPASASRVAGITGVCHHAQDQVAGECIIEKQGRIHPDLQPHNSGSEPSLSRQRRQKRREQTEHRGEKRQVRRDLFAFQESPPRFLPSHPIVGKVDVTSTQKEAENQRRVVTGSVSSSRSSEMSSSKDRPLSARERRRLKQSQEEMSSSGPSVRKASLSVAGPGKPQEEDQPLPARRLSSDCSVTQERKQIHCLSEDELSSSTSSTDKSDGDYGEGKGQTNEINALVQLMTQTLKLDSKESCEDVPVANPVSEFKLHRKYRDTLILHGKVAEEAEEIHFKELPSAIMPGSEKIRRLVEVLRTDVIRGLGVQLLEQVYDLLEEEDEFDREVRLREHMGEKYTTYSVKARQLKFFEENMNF
Sequence of UniProt P51817 (whole entry, looked up): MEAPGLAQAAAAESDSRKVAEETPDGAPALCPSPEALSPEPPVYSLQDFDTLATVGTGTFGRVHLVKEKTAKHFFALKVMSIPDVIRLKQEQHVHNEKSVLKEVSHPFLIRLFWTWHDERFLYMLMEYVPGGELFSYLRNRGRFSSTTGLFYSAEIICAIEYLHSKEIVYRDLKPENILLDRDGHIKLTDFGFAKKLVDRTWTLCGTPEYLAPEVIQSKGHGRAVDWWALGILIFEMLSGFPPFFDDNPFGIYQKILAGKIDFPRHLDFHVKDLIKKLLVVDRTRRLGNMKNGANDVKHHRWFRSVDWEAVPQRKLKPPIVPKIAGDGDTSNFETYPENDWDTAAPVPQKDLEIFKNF

Sample 1
Species: human
Sample: microsomes or S9
Tested at: 2 µM
Time: 0.5 h
Quantity: remaining compound
SMILES = Cc1cccc2c(=O)n(CC(=O)NCC3CC4c5ccccc5C3c3ccccc34)cnc12 (stereo not drawn); result = 26.2%
SMILES = CCCn1c2c(c(O)c(C(=O)OCC)c1=O)CCCC2; result = 64.9%
SMILES = CNC(=O)c1nnn2c1[nH]c(=O)c1c(C)c(C)sc12; result = 84.4%
SMILES = COc1cc(=O)n2c(c1C(=O)Nc1cccc(F)c1C)CCCC2; result = 58%
SMILES = CCOC(OCC)c1cc2c(N)nc3ccccc3c2o1; result = 61.9%
SMILES = Cc1n[nH]c(C)c1CCC(=O)NCc1c(F)cccc1F; result = 71.8%
SMILES = CC(C)CC(=O)Nc1ccc(-n2cnc(C(=O)NCc3ccccc3Cl)c2)nc1; result = 94.2%
SMILES = CCC(Oc1cc(C)ccc1Cl)C(=O)Nc1cccnc1 (stereo not drawn); result = 8.08%
SMILES = CCc1cc2c3c([nH]c2cc1S(=O)(=O)N1CCN(C)CC1)CC(C)(C)CC3=O; result = 83.6%
SMILES = CNC(=O)Nc1ccc(C)n(CC(=O)NCCC(C)C)c1=O; result = > 100%
SMILES = COc1ccc2c(cc(C(=O)Nc3ccccc3OCC3CCCCO3)n2C)c1OC (stereo not drawn); result = 18%
SMILES = CC(C(=O)Nc1ccc2c(c1)CCC2)n1nc(-c2ccc3c(c2)OCCO3)ccc1=O (stereo not drawn); result = 13.1%

Sample 2
SMILES: N=C(N)NC(=O)c1cnn(-c2cccc3ncccc23)c1C1CC1
Read-out: β-arrestin recruitment
Mode: agonist
Method: PRESTO-Tango
Tested at: 10 µM
Relative to: untreated
Quantity: fold over basal
target = NTSR2 (Homo sapiens, UniProt O95665); result = 1.3
target = GPR84 (Homo sapiens, UniProt Q9NQS5); result = 1.38
target = RXFP3 (Homo sapiens, UniProt Q9NSD7); result = 1.29
target = Probable G-protein coupled receptor 34 (Homo sapiens, UniProt Q9UPC5); result = 0.96
target = HTR2C (Homo sapiens, UniProt P28335, I156V/I160V); result = 0.55
target = G-protein coupled receptor family C group 5 member D (GPRC5D, Homo sapiens, UniProt Q9NZD1); result = 0.52
target = Motilin receptor (MLNR, Homo sapiens, UniProt O43193); result = 0.72
target = P2Y purinoceptor 13 (P2RY13, Homo sapiens, UniProt Q9BPV8); result = 1.15
target = GHRHR (Homo sapiens, UniProt Q02643); result = 0.72 fold
target = SSTR2 (Homo sapiens, UniProt P30874); result = 0.83
target = GRM7 (Homo sapiens, UniProt Q14831); result = 0.74 fold

Sample 3
SMILES: CSc1cccnc1N1CCN(Cc2nc3ccccc3[nH]2)CC1
Tested at: 1 µM
Quantity: remaining binding
target = KIT (Homo sapiens, UniProt P10721, D816H); read-out = cell-free assay; method = competition with immobilised ligand; result = 100%
target = ERBB4 (Homo sapiens, UniProt Q15303); read-out = cell-free assay; method = competition with immobilised ligand; result = 83%
target = CSNK1E (Homo sapiens, UniProt P49674); read-out = cell-free assay; method = competition with immobilised ligand; result = 91%
target = Macrophage colony-stimulating factor 1 receptor, autoinhibited (CSF1R, Homo sapiens, UniProt P07333); read-out = cell-free assay; method = competition with immobilised ligand; result = 73%
target = GAK (Homo sapiens, UniProt O14976); read-out = cell-free assay; method = competition with immobilised ligand; result = 99%
target = NEK4 (Homo sapiens, UniProt P51957); read-out = cell-free assay; method = competition with immobilised ligand; result = 88%
target = CDKL2 (Homo sapiens, UniProt Q92772); read-out = binding; method = competition with immobilised ligand; result = 84%
target = FLT3 (Homo sapiens, UniProt P36888, ITD); read-out = cell-free assay; method = competition with immobilised ligand; result = 100%
target = CAMK4 (Homo sapiens, UniProt Q16566); read-out = cell-free assay; method = competition with immobilised ligand; result = 100%
target = VRK2 (Homo sapiens, UniProt Q86Y07); read-out = cell-free assay; method = competition with immobilised ligand; result = 75%
target = IRAK3 (Homo sapiens, UniProt Q9Y616); read-out = cell-free assay; method = competition with immobilised ligand; result = 94%
target = Tyrosine-protein kinase JAK3, JH1 (JAK3, Homo sapiens, UniProt P52333); read-out = cell-free assay; method = competition with immobilised ligand; result = 100%
target = CLK2 (Homo sapiens, UniProt P49760); read-out = cell-free assay; method = competition with immobilised ligand; result = 100%
target = CDK14 (Homo sapiens, UniProt O94921); read-out = cell-free assay; method = competition with immobilised ligand; result = 100%
target = ACVR2B (Homo sapiens, UniProt Q13705); read-out = binding; method = competition with immobilised ligand; result = 98%
target = CAMK1 (Homo sapiens, UniProt Q14012); read-out = cell-free assay; method = competition with immobilised ligand; result = 100%
target = INSRR (Homo sapiens, UniProt P14616); read-out = cell-free assay; method = competition with immobilised ligand; result = 94%
target = SIK1 (Homo sapiens, UniProt P57059); method = competition binding; result = 100%
target = CAMK2B (Homo sapiens, UniProt Q13554); read-out = cell-free assay; method = competition with immobilised ligand; result = 100%
target = RIOK3 (Homo sapiens, UniProt O14730); read-out = cell-free assay; method = competition with immobilised ligand; result = 100%
target = EGFR (Homo sapiens, UniProt P00533, del747-752/P753S); read-out = cell-free assay; method = competition with immobilised ligand; result = 100%
target = EGFR (Homo sapiens, UniProt P00533, A750P/del747-749); read-out = cell-free assay; method = competition with immobilised ligand; result = 100%
target = ACVR2A (Homo sapiens, UniProt P27037); read-out = cell-free assay; method = competition with immobilised ligand; result = 69%
target = PRKX (Homo sapiens, UniProt P51817); read-out = cell-free assay; method = competition with immobilised ligand; result = 100%
target = FLT3 (Homo sapiens, UniProt P36888); read-out = cell-free assay; method = competition with immobilised ligand; result = 100%

Sample 4
Target: Serine/threonine-protein kinase PAK 4 (PAK4, Homo sapiens, UniProt O96013)
Sequence of UniProt O96013 (whole entry, looked up): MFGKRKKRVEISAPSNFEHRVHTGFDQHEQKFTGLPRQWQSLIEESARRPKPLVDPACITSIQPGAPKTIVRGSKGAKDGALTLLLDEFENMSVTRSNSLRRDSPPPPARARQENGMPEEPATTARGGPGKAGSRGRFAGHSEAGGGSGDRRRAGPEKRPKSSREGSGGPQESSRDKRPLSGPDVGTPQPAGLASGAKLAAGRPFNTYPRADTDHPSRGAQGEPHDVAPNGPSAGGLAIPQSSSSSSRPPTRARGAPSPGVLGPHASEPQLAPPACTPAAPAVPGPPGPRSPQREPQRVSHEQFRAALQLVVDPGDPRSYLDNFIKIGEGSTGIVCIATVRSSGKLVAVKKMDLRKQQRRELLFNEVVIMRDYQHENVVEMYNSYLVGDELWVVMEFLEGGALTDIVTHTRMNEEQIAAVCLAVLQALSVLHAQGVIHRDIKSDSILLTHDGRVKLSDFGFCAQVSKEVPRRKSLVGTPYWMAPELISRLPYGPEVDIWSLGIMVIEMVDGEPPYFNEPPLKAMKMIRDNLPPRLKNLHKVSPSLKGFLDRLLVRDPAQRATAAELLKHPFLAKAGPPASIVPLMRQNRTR
Read-out: enzyme activity
Mode: inhibitor
Tested at: 0.5 µM
Relative to: control
Quantity: remaining activity
Compound = O=C1Cc2c([nH]c3ccc(Br)cc23)-c2ccccc2N1; result = 92.2%
Compound = c1ccc(-c2n[nH]c3c2oc2ccccc23)cc1; result = 112%
Compound = c1ccc2c(-c3ccncc3)c[nH]c2c1; result = 96.7%
Compound = N#Cc1cnc2cnc(NCc3cccnc3)cc2c1Nc1ccc(F)c(Cl)c1; result = 85.4%
Compound = COc1cccc(-c2cc(=O)c3ccccc3o2)c1N; result = 88.1%
Compound = Cc1cc(Nc2cc(N3CCN(C)CC3)nc(Sc3ccc(NC(=O)C4CC4)cc3)n2)[nH]n1; result = 85.4%
Compound = CCCNC(=O)Nc1ccc(Oc2ncnc3cc(OC)c(OC)cc23)cc1Cl; result = 95.7%
Compound = Oc1cccc(-c2nc(N3CCOCC3)c3oc4ncccc4c3n2)c1; result = 90.7%
Compound = O=C1Nc2ccccc2/C1=C\c1c(Cl)[nH]c2ccccc12; result = 104%
Compound = CN1CCN(c2ccc3nc(-c4c(N)c5c(F)cccc5[nH]c4=O)[nH]c3c2)CC1; result = 93%
Compound = COc1ccc2c(c1)c(C1=C(c3c[nH]c4ccccc34)C(=O)NC1=O)cn2CCCN(C)C; result = 94.8%
Compound = O=c1cc(N2CCOCC2)oc2c(-c3ccccc3)cccc12; result = 92.8%
Compound = O=C1Nc2ccc(Br)cc2/C1=C/c1cc2c([nH]1)CCCC2; result = 76.8%
Compound = O=Nc1c(-c2c(O)[nH]c3cc(Br)ccc23)[nH]c2ccccc12; result = 95.3%
Compound = CCCCc1c(-c2ccc(OC)cc2)[nH]c2nccnc12; result = 107%
Compound = Cc1ccc(S(=O)(=O)/C=C/C#N)cc1; result = 91.9%
Compound = O=C1NC(=O)c2c1c1c3ccccc3[nH]c1n1cncc21; result = 97.1%
Compound = CN(C)S(=O)(=O)c1ccc2c(c1)/C(=C/c1cc3c([nH]1)CCCC3)C(=O)N2; result = 97.6%
Compound = O=C1NC(=O)c2c1c1c3ccccc3[nH]c1c1[nH]c3cc(Br)ccc3c21; result = 96.4%
Compound = COc1ccc(COc2ccc(Cc3cnc(N)nc3N)cc2OC)cc1; result = 101%
Compound = O=C(c1cc2cc(O)ccc2[nH]1)c1cc2cc(O)ccc2[nH]1; result = 111%

Excerpt of the above (sample 1):
SMILES = COc1ccc2c(cc(C(=O)Nc3ccccc3OCC3CCCCO3)n2C)c1OC (stereo not drawn); result = 18%
SMILES = CC(C)CC(=O)Nc1ccc(-n2cnc(C(=O)NCc3ccccc3Cl)c2)nc1; result = 94.2%
SMILES = CNC(=O)c1nnn2c1[nH]c(=O)c1c(C)c(C)sc12; result = 84.4%
SMILES = CC(C(=O)Nc1ccc2c(c1)CCC2)n1nc(-c2ccc3c(c2)OCCO3)ccc1=O (stereo not drawn); result = 13.1%
SMILES = CCc1cc2c3c([nH]c2cc1S(=O)(=O)N1CCN(C)CC1)CC(C)(C)CC3=O; result = 83.6%
SMILES = CCCn1c2c(c(O)c(C(=O)OCC)c1=O)CCCC2; result = 64.9%
SMILES = COc1cc(=O)n2c(c1C(=O)Nc1cccc(F)c1C)CCCC2; result = 58%
SMILES = Cc1cccc2c(=O)n(CC(=O)NCC3CC4c5ccccc5C3c3ccccc34)cnc12 (stereo not drawn); result = 26.2%
SMILES = CCOC(OCC)c1cc2c(N)nc3ccccc3c2o1; result = 61.9%
SMILES = Cc1n[nH]c(C)c1CCC(=O)NCc1c(F)cccc1F; result = 71.8%
SMILES = CCC(Oc1cc(C)ccc1Cl)C(=O)Nc1cccnc1 (stereo not drawn); result = 8.08%
